Experimental data of several laboratories.
Numbered parts are unrelated; each lists some results of a single study.

Block 1 — technique: RNA Bind-n-Seq; form: RNA; matrix: in vitro; concentration: 200 nM; notes: whole 134-nt RNA, ends assumed; with: 150 mM LiCl; baseline: input library; direction: higher = stronger binding; library: 7-deaza-guanosine replaces G
Target: Fragile X messenger ribonucleoprotein 1, C-terminal low-complexity region (Fmr1, Mus musculus, UniProt P35922)
For `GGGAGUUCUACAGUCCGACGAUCCCUGUGCUACACAUCGUAUGUACCGAAUCGGAAAAAAAGGAAAAAAAGGGGAAAAAAAGGGAAAGUAUUAUGUUACGCCGUUCGGAUCUGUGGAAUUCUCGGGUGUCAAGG`, the log2 enrichment was -0.697.
For `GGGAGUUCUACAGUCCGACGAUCUCAAGUCCUGUGCUACACAUCGUAUGUACCGAAUCGGUUUUUGGAGGUUUUUGGAAAGUAUUAUGUUACGCCGUUCGGAUCUGCACUUCCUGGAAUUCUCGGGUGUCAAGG`, the log2 enrichment was -0.749.
`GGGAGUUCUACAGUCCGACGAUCCUGUGCUACACAUCGUAUGUACCGAAUCGGGGAAAAAAAGGGGAAAAAGGGGUUUUUGGGGAAAGUAUUAUGUUACGCCGUUCGGAUCUGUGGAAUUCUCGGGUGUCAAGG` gave a log2 enrichment of -0.481.
With `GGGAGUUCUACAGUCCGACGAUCUCCUGUGCUACACAUCGUAUGUACCGAAUCGGGUUUUUGGGAAAAAGGGAAAAAAAGGGAAAGUAUUAUGUUACGCCGUUCGGAUCUGCAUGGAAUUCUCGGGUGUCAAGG` the log2 enrichment was -0.794.
`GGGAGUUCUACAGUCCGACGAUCUCAAGUCCUGUGCUACACAUCGUAUGUACCGAAUCGGGUUUUUGGGUGGGAGGGAAAGUAUUAUGUUACGCCGUUCGGAUCUGCACUUCCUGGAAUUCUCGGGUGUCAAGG` gave a log2 enrichment of -1.56.

Block 2 — technique: universal PBM; form: double-stranded DNA, one strand shown; matrix: in vitro; concentration: 600 nM; direction: higher = stronger binding
Target: Sal-like protein 4, full length isoform A (SALL4, Homo sapiens, UniProt Q9UJQ4, residues 1-1053)
Chain of UniProt Q9UJQ4 (whole entry, looked up): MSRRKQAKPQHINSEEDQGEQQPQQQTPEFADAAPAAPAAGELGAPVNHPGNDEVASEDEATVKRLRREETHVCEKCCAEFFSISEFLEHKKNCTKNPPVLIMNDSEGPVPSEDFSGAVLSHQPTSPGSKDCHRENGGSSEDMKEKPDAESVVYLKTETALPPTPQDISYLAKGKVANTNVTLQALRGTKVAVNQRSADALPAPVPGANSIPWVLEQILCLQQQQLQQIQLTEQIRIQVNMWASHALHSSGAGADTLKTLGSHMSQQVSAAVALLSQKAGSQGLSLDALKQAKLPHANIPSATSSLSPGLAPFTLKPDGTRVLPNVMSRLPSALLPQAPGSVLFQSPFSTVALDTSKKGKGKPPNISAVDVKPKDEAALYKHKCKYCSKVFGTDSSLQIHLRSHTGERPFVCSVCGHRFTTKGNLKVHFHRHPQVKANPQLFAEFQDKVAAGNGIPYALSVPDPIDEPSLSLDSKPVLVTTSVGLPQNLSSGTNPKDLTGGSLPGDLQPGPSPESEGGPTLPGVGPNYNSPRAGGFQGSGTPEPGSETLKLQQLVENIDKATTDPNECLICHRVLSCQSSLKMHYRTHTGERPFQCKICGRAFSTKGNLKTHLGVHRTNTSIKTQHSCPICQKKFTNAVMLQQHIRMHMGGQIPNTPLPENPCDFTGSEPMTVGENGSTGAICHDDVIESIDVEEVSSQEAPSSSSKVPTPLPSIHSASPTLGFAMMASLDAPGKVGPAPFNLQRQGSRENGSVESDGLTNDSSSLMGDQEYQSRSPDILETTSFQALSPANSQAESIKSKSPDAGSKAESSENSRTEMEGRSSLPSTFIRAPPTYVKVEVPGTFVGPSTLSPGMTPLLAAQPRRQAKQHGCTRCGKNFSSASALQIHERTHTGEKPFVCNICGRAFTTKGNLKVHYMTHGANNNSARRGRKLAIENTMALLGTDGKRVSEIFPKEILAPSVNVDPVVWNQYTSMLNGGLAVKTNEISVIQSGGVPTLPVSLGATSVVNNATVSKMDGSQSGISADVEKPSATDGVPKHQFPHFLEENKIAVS
Notes: 8-mer, flanks averaged, mean of replicates
`AAGCTACA` has an E-score of 0.0262.
The E-score of `GGAATCAA` is reported as 0.00513.
With `AGTTTGTA` the E-score was 0.143.
`AGGCTTGG` has an E-score of -0.228.
The E-score of `GAGGTGCA` is reported as -0.206.
With `AGGTTGTC` the E-score was -0.194.

Block 3 — technique: protein-binding microarray; form: double-stranded DNA, one strand shown; matrix: in vitro; concentration: 940 nM top; notes: 60-bp whole probe; with: salmon DNA 0.4 mg/ml; baseline: random background probes; direction: higher = stronger binding; shared flanks, not repeated: GCCTAGCAC … GTCTTGATTCGCTTGACGCTGCTG
Target: Interferon regulatory factor 5, full length, phosphomimetic (IRF5, Homo sapiens, UniProt Q13568-2, residues 1-514, S451D/S453D/S456D/S462D)
Under “fitted relative affinity”, `AAGCTTCTTTTTTATTCTAAAGTGCTA` is recorded as 1.21 z-score.
Under “fitted relative affinity”, `GACGAACTGAGAATCGAGACGTGCTAG` is recorded as -0.161 z-score.
Under “fitted relative affinity”, `CTGCCTGCTCAGACTGGGGCGTGCTAG` is recorded as -0.259 z-score.
Under “fitted relative affinity”, `GGCTGTTTGGTTCTTATCCTGTGCTAG` is recorded as 0.552 z-score.
`GAAGAACTGGGGACTGGAGACGTGCTA`: “fitted relative affinity” -0.184 z-score.

Mixed results
`PhoQ, residues 284 288 289 292 302 303 SLGVVW` gave a fold induction of 28.1 (PhoP, residues 12 14 15 18 19 VQALL (Escherichia coli, UniProt P23836); Sort-seq, item: YFP reporter; E. coli; PhoQ-PhoP variant library, with: 10 µM Mg2+; baseline: high Mg2+ state, higher = stronger signaling).
